{"data": "Experimental data gathered from unrelated publications", "note": "Every numbered part comes from another study and shows a few of its results, in no order.", "UniProt P54753, sequence (whole entry, looked up)": "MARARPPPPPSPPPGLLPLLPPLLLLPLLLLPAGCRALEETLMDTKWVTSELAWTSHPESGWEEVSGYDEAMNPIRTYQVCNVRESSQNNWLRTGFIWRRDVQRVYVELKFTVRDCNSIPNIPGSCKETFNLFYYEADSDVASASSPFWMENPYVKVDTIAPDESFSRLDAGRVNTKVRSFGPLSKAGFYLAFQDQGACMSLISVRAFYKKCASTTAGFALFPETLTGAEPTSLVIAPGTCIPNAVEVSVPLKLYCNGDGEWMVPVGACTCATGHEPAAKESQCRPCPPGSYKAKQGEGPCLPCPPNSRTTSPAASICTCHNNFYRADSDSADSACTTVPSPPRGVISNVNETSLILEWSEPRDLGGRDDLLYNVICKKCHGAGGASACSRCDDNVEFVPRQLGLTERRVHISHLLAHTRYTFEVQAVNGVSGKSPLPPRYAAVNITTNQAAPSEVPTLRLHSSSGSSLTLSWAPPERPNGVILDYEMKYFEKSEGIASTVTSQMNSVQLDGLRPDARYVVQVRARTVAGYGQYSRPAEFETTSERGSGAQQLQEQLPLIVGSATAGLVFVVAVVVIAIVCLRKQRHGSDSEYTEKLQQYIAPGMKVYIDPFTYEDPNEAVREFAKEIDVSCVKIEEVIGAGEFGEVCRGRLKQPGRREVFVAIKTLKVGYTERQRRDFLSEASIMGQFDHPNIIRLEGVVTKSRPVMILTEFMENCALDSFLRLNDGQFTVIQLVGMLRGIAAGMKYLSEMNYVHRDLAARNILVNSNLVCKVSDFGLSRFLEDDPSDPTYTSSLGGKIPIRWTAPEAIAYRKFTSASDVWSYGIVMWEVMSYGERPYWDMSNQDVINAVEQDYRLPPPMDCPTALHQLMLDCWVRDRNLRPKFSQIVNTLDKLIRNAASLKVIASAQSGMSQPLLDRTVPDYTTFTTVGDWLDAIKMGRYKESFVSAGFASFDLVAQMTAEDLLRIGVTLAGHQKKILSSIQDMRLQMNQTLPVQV"}
{"data": "Series 1", "target": "POU, POU domain (Salpingoeca helianthica)", "technique": "Spec-seq", "form": "double-stranded DNA, one strand shown", "sample": "in vitro", "concentration": "not given", "notes": "whole probe, mean of replicates", "reference": "not given", "reading": "lower = stronger binding", "shared flanks, not repeated": "GAGTCGTCTCGTCAGCAC … CCGTAGAGCACTCAGGTC", "Construct (chain)": "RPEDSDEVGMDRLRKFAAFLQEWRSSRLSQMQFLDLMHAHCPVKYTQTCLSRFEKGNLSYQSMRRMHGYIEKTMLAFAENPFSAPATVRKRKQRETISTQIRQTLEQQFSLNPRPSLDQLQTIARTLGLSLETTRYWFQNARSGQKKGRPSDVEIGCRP"}
{"Oligonucleotide": "ATTTGAAT", "relative binding energy [ln ratio]": 0.664}
{"Oligonucleotide": "ATGCAGCT", "relative binding energy [ln ratio]": 1.28}
{"Oligonucleotide": "CCATTAAT", "relative binding energy [ln ratio]": -0.241}
{"Oligonucleotide": "ATGCGCTT", "relative binding energy [ln ratio]": 1.19}
{"Oligonucleotide": "ATACGTAT", "relative binding energy [ln ratio]": 1.2}
{"Oligonucleotide": "ATCACAAT", "relative binding energy [ln ratio]": 1.09}
{"Oligonucleotide": "ATGCTAGA", "relative binding energy [ln ratio]": 1.35}
{"Oligonucleotide": "ATTTAAAT", "relative binding energy [ln ratio]": -0.221}
{"data": "Series 2", "target": "Transcriptional repressor CTCF (CTCF, Homo sapiens, UniProt P49711, residues 1-727, full length assumed)", "technique": "protein-binding microarray", "form": "double-stranded DNA, one strand shown", "sample": "in vitro", "concentration": "not given", "notes": "k-mer, scored over probes, only values ≥0.25", "reading": "higher = stronger binding", "UniProt P49711, sequence (whole entry, looked up)": "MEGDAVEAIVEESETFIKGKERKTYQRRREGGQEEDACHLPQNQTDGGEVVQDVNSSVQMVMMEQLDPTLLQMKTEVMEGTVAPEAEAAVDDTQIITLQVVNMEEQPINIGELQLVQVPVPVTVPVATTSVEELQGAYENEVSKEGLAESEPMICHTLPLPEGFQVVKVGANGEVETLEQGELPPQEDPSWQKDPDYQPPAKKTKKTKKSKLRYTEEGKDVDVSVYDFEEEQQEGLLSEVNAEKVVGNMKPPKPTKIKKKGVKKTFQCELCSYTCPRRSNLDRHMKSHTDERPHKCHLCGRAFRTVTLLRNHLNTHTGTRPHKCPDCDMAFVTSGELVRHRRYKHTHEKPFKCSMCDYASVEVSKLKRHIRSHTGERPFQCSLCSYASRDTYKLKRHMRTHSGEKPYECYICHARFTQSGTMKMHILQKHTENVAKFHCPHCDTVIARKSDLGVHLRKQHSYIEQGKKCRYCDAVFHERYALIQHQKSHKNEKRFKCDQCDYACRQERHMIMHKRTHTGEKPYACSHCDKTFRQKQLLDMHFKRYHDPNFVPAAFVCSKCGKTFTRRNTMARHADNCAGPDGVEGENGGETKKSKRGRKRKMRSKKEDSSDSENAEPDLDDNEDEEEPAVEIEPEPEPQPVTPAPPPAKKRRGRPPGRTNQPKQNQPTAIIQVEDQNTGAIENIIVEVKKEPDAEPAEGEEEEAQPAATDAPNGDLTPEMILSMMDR"}
{"Oligonucleotide": "TATAGTAA", "E-score": 0.304}
{"Oligonucleotide": "GTGAACAA", "E-score": 0.32}
{"Oligonucleotide": "ACCACATG", "E-score": 0.318}
{"Oligonucleotide": "AATCGCGC", "E-score": 0.251}
{"Oligonucleotide": "AAATTATA", "E-score": 0.314}
{"Oligonucleotide": "ATTTACGG", "E-score": 0.328}
{"Oligonucleotide": "ATTTGTTA", "E-score": 0.271}
{"Oligonucleotide": "GCGCCATA", "E-score": 0.325}
{"data": "Mixed results"}
{"Molecule": "PhoQ, residues 284 288 289 292 302 303 NLCILV", "target": "PhoP, residues 12 14 15 18 19 VHSCL (Escherichia coli, UniProt P23836)", "assay": "Sort-seq, item: YFP reporter", "system": "E. coli", "setting": "PhoQ-PhoP variant library, with: 10 µM Mg2+", "scale": "reference: high Mg2+ state, higher = stronger signaling", "measurement": "fold induction", "result": 4.92}
{"Molecule": "CN(C)c1ccc(C=C2C(=O)Nc3ccccc32)cc1", "target": "Ephrin type-B receptor 3 (EPHB3, Homo sapiens, UniProt P54753)", "assay": "enzyme activity, inhibitor", "setting": "0.5 µM", "scale": "reference: control", "measurement": "remaining activity", "result": "94.9%"}
